Assay results pooled from the literature.
Lines come from different studies, so protocols differ. “And” joins repeats or separate records; there may be more than shown. ± marks the error that the study gave.
GPBAR1: G-protein coupled bile acid receptor 1 (GPBAR1, Homo sapiens, UniProt Q8TDU6)
UniProt Q8TDU6, sequence (whole entry, looked up): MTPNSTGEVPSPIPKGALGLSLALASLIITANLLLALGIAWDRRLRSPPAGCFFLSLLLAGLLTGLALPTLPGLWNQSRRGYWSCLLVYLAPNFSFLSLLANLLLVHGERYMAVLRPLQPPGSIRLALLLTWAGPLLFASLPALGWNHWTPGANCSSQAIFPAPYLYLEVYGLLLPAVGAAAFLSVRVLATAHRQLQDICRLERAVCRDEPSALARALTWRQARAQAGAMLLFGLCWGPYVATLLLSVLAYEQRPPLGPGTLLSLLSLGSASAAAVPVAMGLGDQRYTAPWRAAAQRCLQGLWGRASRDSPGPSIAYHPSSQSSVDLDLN
Kir3.1/Kir3.2: Kir3.1/Kir3.2 (Homo sapiens, UniProt P48051+P48549)
UniProt P48549, sequence (whole entry, looked up): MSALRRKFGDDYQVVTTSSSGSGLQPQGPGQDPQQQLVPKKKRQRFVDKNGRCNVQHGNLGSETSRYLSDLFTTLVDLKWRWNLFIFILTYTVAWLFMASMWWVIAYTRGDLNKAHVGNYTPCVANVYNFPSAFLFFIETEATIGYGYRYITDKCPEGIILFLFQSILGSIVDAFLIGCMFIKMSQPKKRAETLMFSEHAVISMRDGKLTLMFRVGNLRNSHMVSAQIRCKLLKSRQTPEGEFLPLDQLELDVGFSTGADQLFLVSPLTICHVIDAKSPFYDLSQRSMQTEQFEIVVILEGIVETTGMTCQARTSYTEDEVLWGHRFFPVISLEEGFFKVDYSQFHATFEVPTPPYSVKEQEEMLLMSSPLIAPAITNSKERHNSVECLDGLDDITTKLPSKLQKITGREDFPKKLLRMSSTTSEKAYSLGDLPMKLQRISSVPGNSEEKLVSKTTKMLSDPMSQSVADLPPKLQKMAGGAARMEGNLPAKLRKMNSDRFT
UniProt P48051, sequence (whole entry, looked up): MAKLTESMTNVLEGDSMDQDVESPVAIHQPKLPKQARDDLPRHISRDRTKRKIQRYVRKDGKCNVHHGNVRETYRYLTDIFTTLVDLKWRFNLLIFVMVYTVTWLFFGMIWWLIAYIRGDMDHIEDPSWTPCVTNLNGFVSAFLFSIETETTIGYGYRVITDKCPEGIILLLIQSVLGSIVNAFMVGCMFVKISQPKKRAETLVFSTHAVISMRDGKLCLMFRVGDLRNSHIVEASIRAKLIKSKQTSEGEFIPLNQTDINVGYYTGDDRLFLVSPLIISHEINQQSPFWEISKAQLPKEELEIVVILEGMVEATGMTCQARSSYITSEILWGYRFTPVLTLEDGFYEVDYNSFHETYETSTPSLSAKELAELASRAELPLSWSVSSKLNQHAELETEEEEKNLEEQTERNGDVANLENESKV
ADGRG1: ADGRG1 (Homo sapiens, UniProt Q9Y653)
UniProt Q9Y653, sequence (whole entry, unmodified, looked up): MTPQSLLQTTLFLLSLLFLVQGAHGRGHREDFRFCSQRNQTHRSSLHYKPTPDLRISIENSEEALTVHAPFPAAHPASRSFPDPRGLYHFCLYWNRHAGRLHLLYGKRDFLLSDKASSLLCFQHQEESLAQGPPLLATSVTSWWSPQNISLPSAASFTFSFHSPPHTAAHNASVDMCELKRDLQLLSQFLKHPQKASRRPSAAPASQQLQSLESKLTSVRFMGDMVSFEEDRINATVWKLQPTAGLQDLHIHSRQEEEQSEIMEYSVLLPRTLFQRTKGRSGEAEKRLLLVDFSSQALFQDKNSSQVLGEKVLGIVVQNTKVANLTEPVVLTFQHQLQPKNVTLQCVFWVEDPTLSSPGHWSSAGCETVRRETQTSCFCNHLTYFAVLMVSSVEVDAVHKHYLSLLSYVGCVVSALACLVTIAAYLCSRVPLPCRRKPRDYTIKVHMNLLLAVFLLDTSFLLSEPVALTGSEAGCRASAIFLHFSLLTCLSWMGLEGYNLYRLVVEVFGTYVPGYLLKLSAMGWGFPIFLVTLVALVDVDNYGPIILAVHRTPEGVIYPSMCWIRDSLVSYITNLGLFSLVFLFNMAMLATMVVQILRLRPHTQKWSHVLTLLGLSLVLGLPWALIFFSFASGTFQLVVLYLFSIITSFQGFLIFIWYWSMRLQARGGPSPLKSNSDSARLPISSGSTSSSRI
NPBWR1: Neuropeptides B/W receptor type 1 (NPBWR1, Homo sapiens, UniProt P48145)
UniProt P48145, sequence (whole entry, looked up): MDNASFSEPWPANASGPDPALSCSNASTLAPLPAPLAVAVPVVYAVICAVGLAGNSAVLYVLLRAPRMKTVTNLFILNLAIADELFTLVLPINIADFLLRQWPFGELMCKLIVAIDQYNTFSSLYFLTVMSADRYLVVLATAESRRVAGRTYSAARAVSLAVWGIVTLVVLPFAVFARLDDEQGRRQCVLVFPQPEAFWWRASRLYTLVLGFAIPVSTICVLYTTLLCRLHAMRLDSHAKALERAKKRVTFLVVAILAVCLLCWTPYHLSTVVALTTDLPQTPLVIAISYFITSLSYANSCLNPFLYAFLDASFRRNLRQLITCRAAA
G-protein coupled receptor 39: G-protein coupled receptor 39 (Mus musculus, UniProt Q5U431)
UniProt Q5U431, sequence (whole entry, looked up): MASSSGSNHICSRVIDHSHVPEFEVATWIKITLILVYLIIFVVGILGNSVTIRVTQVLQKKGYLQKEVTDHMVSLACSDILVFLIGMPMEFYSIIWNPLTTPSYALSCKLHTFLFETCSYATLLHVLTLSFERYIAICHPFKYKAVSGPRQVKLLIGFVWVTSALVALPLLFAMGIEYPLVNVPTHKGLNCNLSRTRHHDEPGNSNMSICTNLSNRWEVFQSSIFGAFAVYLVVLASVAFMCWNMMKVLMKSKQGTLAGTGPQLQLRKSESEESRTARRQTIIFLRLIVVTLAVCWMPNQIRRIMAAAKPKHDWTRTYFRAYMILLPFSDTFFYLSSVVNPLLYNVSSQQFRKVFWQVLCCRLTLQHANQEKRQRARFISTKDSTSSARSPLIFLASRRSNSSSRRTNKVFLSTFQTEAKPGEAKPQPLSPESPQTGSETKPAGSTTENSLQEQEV
CXCL12: Stromal cell-derived factor 1 (CXCL12, Homo sapiens, UniProt P48061)
UniProt P48061, sequence (whole entry, looked up): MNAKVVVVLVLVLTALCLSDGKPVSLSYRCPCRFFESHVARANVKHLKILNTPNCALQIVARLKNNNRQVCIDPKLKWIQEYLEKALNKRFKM
CXCL8: Interleukin-8 (CXCL8, Homo sapiens, UniProt P10145)
UniProt P46089, sequence (whole entry, unmodified, looked up): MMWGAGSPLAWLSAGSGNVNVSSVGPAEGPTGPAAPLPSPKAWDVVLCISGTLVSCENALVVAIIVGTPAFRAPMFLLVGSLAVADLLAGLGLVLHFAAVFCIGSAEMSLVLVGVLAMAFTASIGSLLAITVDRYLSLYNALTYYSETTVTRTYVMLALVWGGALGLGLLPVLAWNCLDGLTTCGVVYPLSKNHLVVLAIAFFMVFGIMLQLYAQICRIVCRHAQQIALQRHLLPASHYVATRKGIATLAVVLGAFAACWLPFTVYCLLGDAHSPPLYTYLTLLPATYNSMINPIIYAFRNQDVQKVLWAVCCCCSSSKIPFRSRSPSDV
UniProt P10145, sequence (whole entry, looked up): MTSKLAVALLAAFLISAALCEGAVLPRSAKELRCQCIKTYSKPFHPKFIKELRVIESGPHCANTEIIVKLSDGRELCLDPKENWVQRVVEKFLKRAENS
UniProt P48546, sequence (whole entry, looked up): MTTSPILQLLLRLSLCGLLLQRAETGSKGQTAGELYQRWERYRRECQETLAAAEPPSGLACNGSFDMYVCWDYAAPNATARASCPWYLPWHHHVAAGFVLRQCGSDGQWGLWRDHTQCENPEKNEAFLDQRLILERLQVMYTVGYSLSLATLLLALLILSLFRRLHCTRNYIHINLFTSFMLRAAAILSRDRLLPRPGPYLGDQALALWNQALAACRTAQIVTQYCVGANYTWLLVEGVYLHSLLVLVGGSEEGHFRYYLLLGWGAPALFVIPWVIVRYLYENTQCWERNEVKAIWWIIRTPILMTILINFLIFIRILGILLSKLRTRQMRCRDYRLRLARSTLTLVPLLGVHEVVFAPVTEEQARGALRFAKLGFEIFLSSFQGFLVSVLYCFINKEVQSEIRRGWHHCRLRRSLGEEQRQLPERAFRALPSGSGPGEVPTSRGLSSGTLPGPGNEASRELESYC
UniProt P32214, sequence (whole entry, looked up): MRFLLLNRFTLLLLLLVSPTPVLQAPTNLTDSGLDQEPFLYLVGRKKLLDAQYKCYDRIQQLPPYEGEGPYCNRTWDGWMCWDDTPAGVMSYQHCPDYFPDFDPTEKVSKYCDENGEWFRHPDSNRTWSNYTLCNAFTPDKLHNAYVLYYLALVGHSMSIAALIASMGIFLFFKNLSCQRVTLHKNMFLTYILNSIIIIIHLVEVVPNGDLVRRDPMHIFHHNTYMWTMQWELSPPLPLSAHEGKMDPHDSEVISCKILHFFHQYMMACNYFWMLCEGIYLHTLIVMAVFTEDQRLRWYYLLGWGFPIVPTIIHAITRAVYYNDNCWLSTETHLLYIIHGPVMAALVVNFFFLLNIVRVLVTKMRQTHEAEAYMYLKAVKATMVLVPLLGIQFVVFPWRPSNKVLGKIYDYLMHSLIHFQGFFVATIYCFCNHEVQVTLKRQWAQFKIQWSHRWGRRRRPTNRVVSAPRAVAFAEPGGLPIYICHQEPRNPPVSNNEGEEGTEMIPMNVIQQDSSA
UniProt Q2G036, sequence (whole entry, looked up): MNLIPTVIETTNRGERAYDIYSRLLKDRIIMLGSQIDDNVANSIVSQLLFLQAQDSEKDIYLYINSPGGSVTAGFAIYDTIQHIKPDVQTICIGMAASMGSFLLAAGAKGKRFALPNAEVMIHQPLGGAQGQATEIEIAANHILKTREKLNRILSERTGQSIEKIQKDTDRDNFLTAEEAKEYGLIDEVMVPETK
UniProt P43220, sequence (whole entry, unmodified, looked up): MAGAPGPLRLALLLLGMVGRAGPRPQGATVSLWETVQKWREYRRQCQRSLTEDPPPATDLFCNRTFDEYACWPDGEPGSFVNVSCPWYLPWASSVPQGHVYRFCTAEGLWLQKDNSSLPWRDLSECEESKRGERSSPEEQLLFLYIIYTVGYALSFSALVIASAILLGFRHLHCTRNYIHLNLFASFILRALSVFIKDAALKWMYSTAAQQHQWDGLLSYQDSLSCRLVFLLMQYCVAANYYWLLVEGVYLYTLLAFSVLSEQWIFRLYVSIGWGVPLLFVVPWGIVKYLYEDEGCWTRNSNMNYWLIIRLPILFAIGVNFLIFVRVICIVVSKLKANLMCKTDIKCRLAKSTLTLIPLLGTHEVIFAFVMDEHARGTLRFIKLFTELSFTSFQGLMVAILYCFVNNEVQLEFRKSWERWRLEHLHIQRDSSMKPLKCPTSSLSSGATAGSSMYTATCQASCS

SMILES | target | test | system | setting | EC50
CC(CCC(=O)NCC(=O)O)C1CCC2C3C(O)CC4CC(O)CCC4(C)C3CCC12C (stereo not shown) | GPBAR1 | agonist | – | – | 6.3 ± 2.5 µM
Cn1c(=O)n(C2CCC(=O)NC2=O)c2ccc(C3CCN(CC(=O)Nc4cccc(CS(=O)(=O)N5CC[C@H](Nc6cccc(-c7sc(C(=O)O)c(OCC(=O)O)c7Cl)c6)CC5(C)C)c4)CC3)cc21 (stereo partly shown) | PTPN22 (Homo sapiens, UniProt Q9Y2R2) | phosphatase activity | – | added: DiFMUP substrate | > 10 µM
CC(CCC(=O)O)C1CCC2C3C(O)CC4CC(OS(=O)(=O)O)CCC4(C)C3CCC12C (stereo not shown) | GPBAR1 | agonist | – | – | > 200 µM
O=C(COc1ccc(Cl)cc1Cl)Nc1cc(C2CC2)nn1C1CCOCC1 | Kir3.1/Kir3.2 | activator, thallium flux | HEK293 | – | 0.176 µM
CC1=C(C(=O)OC(C)C)C(c2ccccc2C)C2=C(CC(C)(C)CC2=O)N1 (stereo not shown) | ADGRG1 | G13 activation, agonist, GTPγS binding, reconstitution | – | – | 9.38 ± 0.7 µM
O=C(O)c1ccccc1OCc1ccccc1Br | GTPase HRas (HRAS, Homo sapiens, UniProt P01112) | GTP binding, flow cytometry | – | EDTA, added: BODIPY-GTP 100 nM | 0.11 µM
CC(CCC(=O)NCC(=O)O)C1CCC2C3CCC4CC(OS(=O)(=O)O)CCC4(C)C3CC(O)C12C (stereo not shown) | GPBAR1 | agonist | – | – | > 200 µM
CC(C)C[C@H](NC(=O)CNC(=O)[C@H](C)NC(=O)[C@H](C)NC(=O)[C@H](CCCNC(=N)N)NC(=O)CNC(=O)CCCCNC(=O)CCCCNC(=O)CCCCNC(=O)[C@H](CCCCN)NC(=O)[C@H](Cc1ccc(O)cc1)NC(=O)[C@@H](N)Cc1c[nH]c2ccccc12)C(=O)N[C@H](CC(C)C)C(N)=O | NPBWR1 | calcium signal, agonist | – | – | 0.463 µM
Nc1ncnc2c1ncn2[C@@H]1O[C@H](COP(=O)(O)OP(=O)(O)OC[C@H]2OC(O)[C@H](O)[C@@H]2O)[C@@H](O)[C@H]1OP(=O)(O)O (stereo partly shown) | TRPM2 (Nematostella vectensis, UniProt A7T1N0, K147A) | agonist | – | – | 46 ± 3 µM
CC(C)C[C@H](NC(=O)[C@H](Cc1ccccc1)NC(=O)[C@H](CCCNC(=N)N)NC(=O)[C@H](CCC(N)=O)NC(=O)[C@H](CC(C)C)NC(=O)C(C)(C)NC(=O)[C@H](C)NC(=O)[C@H](CCC(=O)O)NC(=O)[C@H](CCC(=O)O)NC(=O)[C@H](CCCCNC(=O)COCCOCCNC(=O)COCCOCCNC(=O)CC[C@H](NC(=O)CCCCCCCCCCCCCCCCCCC(=O)O)C(=O)O)NC(=O)[C@H](CC(C)C)NC(=O)[C@H](Cc1ccc(O)cc1)NC(=O)[C@H](CO)NC(=O)[C@@H](NC(=O)[C@H](CC(=O)O)NC(=O)[C@H](CO)NC(=O)[C@@H](NC(=O)[C@H](Cc1ccccc1)NC(=O)[C@@H](NC(=O)CNC(=O)[C@H](CCC(=O)O)NC(=O)C(C)(C)NC(=O)[C@@H](N)Cc1c[nH]cn1)[C@@H](C)O)[C@@H](C)O)C(C)C)C(=O)N[C@@H](CCC(=O)O)C(=O)N[C@@H](Cc1c[nH]cn1)C(=O)N[C@@H](CC(C)C)C(=O)N[C@H](C(N)=O)C(C)C | GIPR (Homo sapiens, UniProt P48546) | agonist | – | cross-reactivity | > 5 µM
CC(C)(O)c1ccn2c(-c3ccc(F)c(-c4ccc(F)cc4C#N)c3)cnc2c1F | GABRA1 (Homo sapiens, UniProt P14867, D219N) | Western blot, item: GABRA1 D219N protein level | HEK293T stably expressing α1 D219N | 24 h | 1.3 ± 0.1 µM
COc1cc(C2C(NC(=O)c3ccc(NC(=O)OC(C)(C)C)cc3)(C(=O)O)C(c3ccc(OC(=O)c4cccs4)c(OC)c3)C2(NC(=O)c2ccc(NC(=O)OC(C)(C)C)cc2)C(=O)O)ccc1OC(=O)c1cccs1 (stereo not shown) | GLP1R (Homo sapiens, UniProt P43220, T298A) | cAMP, agonist | – | – | 0.0331 µM
CC(C)Oc1cc(Cl)ccc1CNc1cc(-c2ccccc2)nc2ncnn12 | GPR3 (Homo sapiens, UniProt P46089, Q215A) | cAMP level, agonist, GloSensor | – | receptor Q215A mutant | 0.479 µM and 0.204 µM and 0.55 µM and 0.501 µM and 0.589 µM
C[C@H](CCC(=O)O)[C@H]1CC[C@H]2[C@@H]3CC[C@@H]4C[C@H](OS(=O)(=O)O)CC[C@]4(C)[C@H]3CC[C@]12C | G-protein coupled receptor 39 | calcium signal, agonist, fluorescence | – | – | 41 µM
CC1=C(C(=O)OC2CCCC2)C(c2ccccc2Cl)C2=C(CC(C)(C)CC2=O)N1 (stereo not shown) | ADGRG1 | G13 activation, agonist, GTPγS binding, reconstitution | – | – | 1.89 ± 0.22 µM
O=C(COc1cc(Cl)ccc1Cl)Nc1cc(C2CC2)nn1C1CCOCC1 | Kir3.1/Kir3.2 | activator, thallium flux | HEK293 | – | 0.249 µM

SMILES | target | test | system | setting | EC50
CC(CCC(=O)NCC(=O)O)C1CCC2C3C(O)CC4CC(OS(=O)(=O)O)CCC4(C)C3CCC12C (stereo not shown) | GPBAR1 | agonist | – | – | > 200 µM
CC(C)C[C@H](NC(=O)CNC(=O)[C@H](CO)NC(=O)[C@H](CC(C)C)NC(=O)[C@H](CC(C)C)NC(=O)CNC(=O)[C@H](C)NC(=O)[C@H](C)NC(=O)[C@H](CCCNC(=N)N)NC(=O)CNC(=O)[C@@H](NC(=O)[C@H](CO)NC(=O)[C@H](Cc1ccc(O)cc1)NC(=O)[C@H](CO)NC(=O)[C@H](CO)NC(=O)[C@H](Cc1cnc[nH]1)NC(=O)CNC(=O)[C@H](C)NC(=O)[C@H](C)NC(=O)[C@@H]1CCCN1C(=O)[C@H](CCCCN)NC(=O)[C@H](Cc1ccc(O)cc1)NC(=O)[C@@H](N)Cc1c[nH]c2ccccc12)C(C)C)C(N)=O | NPBWR1 | cAMP, agonist, TR-FRET | – | – | 0.0035 µM
CC(=O)N[C@@H]1[C@@H](O[C@@H]2O[C@H](C(=O)O)[C@@H](O[C@@H]3O[C@H](COS(=O)(=O)O)[C@@H](OS(=O)(=O)O)[C@H](O[C@@H]4O[C@H](C(=O)O)[C@@H](O[C@@H]5O[C@H](COS(=O)(=O)O)[C@@H](OS(=O)(=O)O)[C@H](O[C@@H]6O[C@H](C(=O)O)[C@@H](OS(=O)(=O)O)[C@H](OS(=O)(=O)O)[C@H]6OS(=O)(=O)O)[C@H]5NC(C)=O)[C@H](OS(=O)(=O)O)[C@H]4OS(=O)(=O)O)[C@H]3NC(C)=O)[C@H](OS(=O)(=O)O)[C@H]2OS(=O)(=O)O)[C@H](OS(=O)(=O)O)[C@@H](COS(=O)(=O)O)O[C@H]1N=[N+]=[N-] | CXCL12 | probe displacement, FP competition | – | protein 60 nM, added: TAMRA-labelled sHA tetramer probe | 2.3 ± 0.976 µM
C[C@H](CCC(=O)NCC(=O)O)[C@H]1CC[C@H]2[C@@H]3CC[C@@H]4C[C@H](OS(=O)(=O)O)CC[C@]4(C)[C@H]3CC[C@]12C | G-protein coupled receptor 39 | calcium signal, agonist, fluorescence | – | – | 47.9 µM
CC(=O)N[C@@H]1[C@@H](O[C@@H]2O[C@H](C(=O)O)[C@@H](O[C@@H]3O[C@H](CO)[C@@H](O)[C@H](O[C@@H]4O[C@H](C(=O)O)[C@@H](OS(=O)(=O)O)[C@H](OS(=O)(=O)O)[C@H]4OS(=O)(=O)O)[C@H]3NC(C)=O)[C@H](OS(=O)(=O)O)[C@H]2OS(=O)(=O)O)[C@H](O)[C@@H](CO)O[C@H]1N=[N+]=[N-] | CXCL8 | fluorescence polarization competition | – | CXCL8 800 nM, 100% DW, added: TAMRA-labelled probe | 71.2 ± 20.2 µM
O=C(Cc1ccc(OCc2ccccc2)cc1)NC1(C(=O)O)CCN(C(=O)c2ccc(-c3cccc(Cl)c3)cc2)CC1 | CHRM2 (Homo sapiens, UniProt P08172) | cAMP, agonist, luciferase | – | – | > 10 µM
CC(C)C[C@H](NC(=O)[C@H](CCCN)NC(=O)CNC(=O)[C@@H](NC(=O)[C@H](C)NC(=O)[C@@H]1CSCSC[C@H](NC(=O)CC[C@H](N)C(=O)O)C(=O)N[C@@H](CC(N)=O)C(=O)N[C@@H]([C@@H](C)O)C(=O)N[C@@H](C)C(=O)N[C@@H]([C@@H](C)O)C(=O)N1)[C@@H](C)O)C(=O)N[C@@H](C)C(=O)N[C@@H](CCC(=O)O)C(=O)N[C@@](C)(Cc1ccccc1)C(=O)N[C@@H](CC(C)C)C(=O)N[C@H](C(=O)N[C@@H](CCCNC(=N)N)C(=O)N[C@@H](CO)C(=O)N[C@@H](CO)C(=O)N[C@@H](CC(N)=O)C(=O)N(C)[C@@H](CC(N)=O)C(=O)N[C@@H](Cc1ccccc1)C(=O)NCC(=O)N1CCC[C@H]1C(=O)N[C@@H](CCCCNC(=O)CC[C@H](NC(=O)CC[C@H](NC(=O)CCCCCCCCCCCCCCCCCCC(=O)O)C(=O)O)C(=O)O)C(=O)N[C@@H](CC(C)C)C(=O)N1CCC[C@H]1C(=O)N1CCC[C@H]1C(=O)N[C@H](C(=O)N[C@@H](CCC(=O)O)C(=O)N[C@H](C(=O)NCC(=O)N[C@@H](CO)C(=O)N[C@@H](CC(N)=O)C(=O)N[C@H](C(=O)N[C@@H](Cc1ccc(O)cc1)C(N)=O)[C@@H](C)O)C(C)C)[C@@H](C)O)C(C)C | Amylin receptor AMY3; CALCR/RAMP3 (Rattus norvegicus, UniProt P32214+Q9JJ73) | cAMP, agonist, TR-FRET | – | – | 1.38e-05 µM
CC(CCC(=O)NCCS(=O)(=O)O)C1CCC2C3CCC4CC(O)CCC4(C)C3CCC12C (stereo not shown) | G-protein coupled receptor 39 | calcium signal, agonist, fluorescence | – | – | 44 µM
CC(C)C[C@H](NC(=O)CNC(=O)[C@H](C)NC(=O)[C@H](C)NC(=O)[C@H](CCCNC(=N)N)NC(=O)CNC(=O)CCCCNC(=O)CCCCNC(=O)CCCCNC(=O)[C@H](C)NC(=O)[C@H](Cc1ccc(O)cc1)NC(=O)[C@@H](N)Cc1c[nH]c2ccccc12)C(=O)N[C@@H](CC(C)C)C(=O)N[C@@H](CO)C(N)=O | NPBWR1 | calcium signal, agonist | – | – | 0.478 µM
CC(CCC(=O)NCCS(=O)(=O)O)C1CCC2C3CCC4CC(OS(=O)(=O)O)CCC4(C)C3CCC12C (stereo not shown) | GPBAR1 | agonist | – | – | 99.5 ± 24.1 µM
CC(C)(C(=O)N1CCC(Nc2nc3c(c(=O)[nH]2)CCCC3)CC1)c1ccc(Cl)cc1 | SSTR4 (Homo sapiens, UniProt P31391) | β-arrestin recruitment, agonist | – | – | 3.6 µM
CC(=O)N[C@@H]1[C@@H](O[C@@H]2O[C@H](C(=O)O)[C@@H](O[C@@H]3O[C@H](COS(=O)(=O)O)[C@@H](O)[C@H](O[C@@H]4O[C@H](C(=O)O)[C@@H](O)[C@H](O)[C@H]4O)[C@H]3NC(C)=O)[C@H](O)[C@H]2O)[C@H](O)[C@@H](COS(=O)(=O)O)O[C@H]1N=[N+]=[N-] | CXCL8 | probe displacement, FP competition | – | protein 800 nM, added: TAMRA-labelled sHA tetramer probe | 6280 ± 775 µM
CC1=NC(C)C(C)S1 (stereo not shown) | Olfactory receptor (Mus musculus, UniProt Q8VGQ8) | cAMP, agonist | HEK293 transfected with Olfactory receptor | – | 651 ± 123 µM
CC[C@H](C)[C@H]1C(=O)N(Cc2c3ccccc3cc3ccccc23)C[C@@H]2N(C(=O)NCCCC(F)(F)F)CCC(=O)N12 | clpP (Staphylococcus aureus, UniProt Q2G036) | activator | – | – | 1.7 µM
CC(=O)N[C@@H]1[C@@H](O[C@@H]2O[C@H](C(=O)O)[C@@H](O[C@@H]3O[C@H](COS(=O)(=O)O)[C@@H](OS(=O)(=O)O)[C@H](O[C@@H]4O[C@H](C(=O)O)[C@@H](OS(=O)(=O)O)[C@H](OS(=O)(=O)O)[C@H]4OS(=O)(=O)O)[C@H]3NC(C)=O)[C@H](OS(=O)(=O)O)[C@H]2OS(=O)(=O)O)[C@H](OS(=O)(=O)O)[C@@H](COS(=O)(=O)O)O[C@H]1N=[N+]=[N-] | CXCL12 | probe displacement, FP competition | – | protein 388 nM, added: TAMRA-labelled sHA tetramer probe | 22.7 ± 4.3 µM
